Experimental data pooled from the literature.
Each numbered part is a random draw from the data of one study; scales do not carry over between parts.
Sequence of UniProt P49674 (whole entry, looked up): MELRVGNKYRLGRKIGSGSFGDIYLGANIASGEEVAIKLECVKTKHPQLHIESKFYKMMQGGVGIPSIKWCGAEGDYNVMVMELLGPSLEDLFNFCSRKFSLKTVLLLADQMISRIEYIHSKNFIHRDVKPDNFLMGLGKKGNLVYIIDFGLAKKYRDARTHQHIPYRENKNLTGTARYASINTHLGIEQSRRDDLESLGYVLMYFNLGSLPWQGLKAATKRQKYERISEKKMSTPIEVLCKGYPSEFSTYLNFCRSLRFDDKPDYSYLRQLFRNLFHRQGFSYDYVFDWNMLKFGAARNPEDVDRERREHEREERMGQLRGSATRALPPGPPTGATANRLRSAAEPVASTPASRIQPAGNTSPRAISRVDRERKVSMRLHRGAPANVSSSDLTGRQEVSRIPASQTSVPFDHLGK
Sequence of UniProt P42680 (whole entry, looked up): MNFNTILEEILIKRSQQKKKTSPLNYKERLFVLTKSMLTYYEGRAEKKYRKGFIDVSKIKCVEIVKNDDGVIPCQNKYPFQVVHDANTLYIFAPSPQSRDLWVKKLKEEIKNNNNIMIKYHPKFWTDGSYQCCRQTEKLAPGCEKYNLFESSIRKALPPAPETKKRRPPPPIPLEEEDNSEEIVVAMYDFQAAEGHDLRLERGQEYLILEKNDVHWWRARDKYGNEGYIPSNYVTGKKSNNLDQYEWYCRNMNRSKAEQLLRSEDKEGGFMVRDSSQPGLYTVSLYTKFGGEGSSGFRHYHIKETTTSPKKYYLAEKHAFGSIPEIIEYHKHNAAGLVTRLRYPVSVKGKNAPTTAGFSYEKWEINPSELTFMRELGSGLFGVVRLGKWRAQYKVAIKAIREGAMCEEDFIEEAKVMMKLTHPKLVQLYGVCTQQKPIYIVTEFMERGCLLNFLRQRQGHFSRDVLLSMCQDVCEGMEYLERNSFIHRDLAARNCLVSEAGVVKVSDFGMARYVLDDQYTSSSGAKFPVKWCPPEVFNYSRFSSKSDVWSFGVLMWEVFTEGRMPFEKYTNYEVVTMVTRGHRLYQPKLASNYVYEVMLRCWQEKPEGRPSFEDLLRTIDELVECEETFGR
Sequence of UniProt Q14680 (whole entry, looked up): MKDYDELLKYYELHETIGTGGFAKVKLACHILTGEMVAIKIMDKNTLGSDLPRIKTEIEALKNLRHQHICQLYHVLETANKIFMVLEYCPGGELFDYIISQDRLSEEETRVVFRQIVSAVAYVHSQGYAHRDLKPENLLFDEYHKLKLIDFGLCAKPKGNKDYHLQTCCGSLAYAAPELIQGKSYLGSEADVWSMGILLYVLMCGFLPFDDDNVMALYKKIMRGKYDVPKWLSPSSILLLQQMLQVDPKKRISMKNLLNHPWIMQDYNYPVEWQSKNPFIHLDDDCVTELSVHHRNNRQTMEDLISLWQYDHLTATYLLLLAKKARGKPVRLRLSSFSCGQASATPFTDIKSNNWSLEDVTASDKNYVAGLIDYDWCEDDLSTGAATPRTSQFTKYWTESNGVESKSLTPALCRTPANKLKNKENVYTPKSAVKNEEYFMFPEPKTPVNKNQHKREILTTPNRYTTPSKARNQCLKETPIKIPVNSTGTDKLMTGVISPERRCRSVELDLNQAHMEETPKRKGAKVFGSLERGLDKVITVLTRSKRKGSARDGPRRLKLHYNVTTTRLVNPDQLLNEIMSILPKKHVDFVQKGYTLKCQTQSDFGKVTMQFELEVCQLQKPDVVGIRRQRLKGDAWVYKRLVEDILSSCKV
Sequence of UniProt P21918 (whole entry, looked up): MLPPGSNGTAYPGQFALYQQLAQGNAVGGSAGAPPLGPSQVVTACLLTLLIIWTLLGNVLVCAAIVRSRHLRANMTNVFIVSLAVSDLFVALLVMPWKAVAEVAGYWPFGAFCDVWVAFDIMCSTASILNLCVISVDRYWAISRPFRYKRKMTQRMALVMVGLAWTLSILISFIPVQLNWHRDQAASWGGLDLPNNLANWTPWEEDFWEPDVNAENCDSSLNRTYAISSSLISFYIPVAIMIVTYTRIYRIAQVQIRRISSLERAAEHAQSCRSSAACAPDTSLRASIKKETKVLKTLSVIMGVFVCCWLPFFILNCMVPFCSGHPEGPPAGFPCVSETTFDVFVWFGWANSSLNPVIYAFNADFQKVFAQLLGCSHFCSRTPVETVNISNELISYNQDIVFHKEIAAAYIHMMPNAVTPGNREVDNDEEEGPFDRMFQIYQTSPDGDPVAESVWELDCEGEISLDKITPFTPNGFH
Sequence of UniProt P31645 (whole entry, looked up): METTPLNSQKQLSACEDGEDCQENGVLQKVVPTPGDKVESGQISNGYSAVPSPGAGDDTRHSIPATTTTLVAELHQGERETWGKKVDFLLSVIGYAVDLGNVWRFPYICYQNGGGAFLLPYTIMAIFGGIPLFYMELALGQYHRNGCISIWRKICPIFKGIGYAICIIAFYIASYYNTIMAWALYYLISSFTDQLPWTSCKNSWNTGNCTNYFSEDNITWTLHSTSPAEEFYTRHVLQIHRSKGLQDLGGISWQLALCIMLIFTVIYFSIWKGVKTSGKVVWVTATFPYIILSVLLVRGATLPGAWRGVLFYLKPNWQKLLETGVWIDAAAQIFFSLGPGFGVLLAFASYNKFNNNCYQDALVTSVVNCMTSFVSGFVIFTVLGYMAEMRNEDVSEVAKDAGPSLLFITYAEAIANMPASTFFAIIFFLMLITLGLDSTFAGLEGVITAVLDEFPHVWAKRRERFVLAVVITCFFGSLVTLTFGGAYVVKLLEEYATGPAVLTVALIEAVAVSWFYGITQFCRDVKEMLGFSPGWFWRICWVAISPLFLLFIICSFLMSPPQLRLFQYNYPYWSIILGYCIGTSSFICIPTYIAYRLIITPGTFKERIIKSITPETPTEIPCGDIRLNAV
Sequence of UniProt Q05513 (whole entry, looked up): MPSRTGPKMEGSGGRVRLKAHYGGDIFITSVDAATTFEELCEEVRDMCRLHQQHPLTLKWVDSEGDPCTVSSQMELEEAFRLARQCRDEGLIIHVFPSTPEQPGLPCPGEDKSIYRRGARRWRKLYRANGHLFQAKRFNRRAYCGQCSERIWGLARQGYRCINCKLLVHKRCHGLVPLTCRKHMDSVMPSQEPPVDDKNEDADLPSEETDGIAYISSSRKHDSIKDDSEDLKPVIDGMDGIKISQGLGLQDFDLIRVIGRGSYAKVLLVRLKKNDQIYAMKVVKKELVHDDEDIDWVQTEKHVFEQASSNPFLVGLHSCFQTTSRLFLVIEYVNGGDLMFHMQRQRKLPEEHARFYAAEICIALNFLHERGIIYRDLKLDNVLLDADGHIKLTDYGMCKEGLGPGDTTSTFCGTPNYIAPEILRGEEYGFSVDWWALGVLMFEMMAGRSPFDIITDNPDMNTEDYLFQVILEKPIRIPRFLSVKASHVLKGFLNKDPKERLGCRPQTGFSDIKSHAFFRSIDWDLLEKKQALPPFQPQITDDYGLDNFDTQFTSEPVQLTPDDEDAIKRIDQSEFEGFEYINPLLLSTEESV
Sequence of UniProt P11229 (whole entry, looked up): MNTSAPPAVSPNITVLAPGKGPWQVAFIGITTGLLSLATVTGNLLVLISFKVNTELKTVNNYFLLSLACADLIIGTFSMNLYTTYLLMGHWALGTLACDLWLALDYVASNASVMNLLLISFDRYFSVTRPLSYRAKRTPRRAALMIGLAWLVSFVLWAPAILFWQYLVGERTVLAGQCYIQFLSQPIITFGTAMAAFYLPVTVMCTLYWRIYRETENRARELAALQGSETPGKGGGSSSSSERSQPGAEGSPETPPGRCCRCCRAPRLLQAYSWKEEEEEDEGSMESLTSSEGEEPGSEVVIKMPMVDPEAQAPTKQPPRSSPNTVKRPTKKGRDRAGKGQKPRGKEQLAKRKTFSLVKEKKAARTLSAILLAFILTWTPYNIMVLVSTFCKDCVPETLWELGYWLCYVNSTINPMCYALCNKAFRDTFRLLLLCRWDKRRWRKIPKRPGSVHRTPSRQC
Sequence of UniProt P54753 (whole entry, looked up): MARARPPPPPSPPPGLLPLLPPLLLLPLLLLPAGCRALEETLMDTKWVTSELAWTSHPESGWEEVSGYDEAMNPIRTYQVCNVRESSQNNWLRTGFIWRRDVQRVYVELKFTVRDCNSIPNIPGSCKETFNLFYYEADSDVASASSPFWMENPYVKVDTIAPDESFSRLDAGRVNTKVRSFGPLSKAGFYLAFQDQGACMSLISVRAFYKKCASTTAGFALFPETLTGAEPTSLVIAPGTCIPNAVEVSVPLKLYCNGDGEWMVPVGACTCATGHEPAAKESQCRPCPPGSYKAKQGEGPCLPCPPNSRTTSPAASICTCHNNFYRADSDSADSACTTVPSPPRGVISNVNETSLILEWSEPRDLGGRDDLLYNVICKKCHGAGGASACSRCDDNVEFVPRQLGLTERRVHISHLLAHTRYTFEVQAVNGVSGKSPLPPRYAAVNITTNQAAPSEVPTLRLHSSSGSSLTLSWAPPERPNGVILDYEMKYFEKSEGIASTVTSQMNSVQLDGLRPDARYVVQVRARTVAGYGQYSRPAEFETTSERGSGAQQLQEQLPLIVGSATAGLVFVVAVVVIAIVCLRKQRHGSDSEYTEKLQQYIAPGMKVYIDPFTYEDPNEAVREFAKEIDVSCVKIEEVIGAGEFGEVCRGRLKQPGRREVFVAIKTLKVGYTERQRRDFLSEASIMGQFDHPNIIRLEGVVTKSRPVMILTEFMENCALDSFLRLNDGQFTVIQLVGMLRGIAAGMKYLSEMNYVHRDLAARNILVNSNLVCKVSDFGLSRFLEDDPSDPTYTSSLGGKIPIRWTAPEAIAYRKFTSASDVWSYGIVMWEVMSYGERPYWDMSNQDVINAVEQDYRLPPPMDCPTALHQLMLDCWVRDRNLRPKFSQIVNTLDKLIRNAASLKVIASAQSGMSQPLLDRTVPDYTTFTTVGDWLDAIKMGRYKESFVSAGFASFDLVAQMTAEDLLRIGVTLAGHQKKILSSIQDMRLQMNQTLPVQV

Study 1 — observed: ligand displacement; method: radioligand; tested at: 10 µM; measurement: inhibition
Compound: Cc1cc(NC(=O)c2cccc(S(F)(F)(F)(F)F)c2)cc(-n2ccn3nc(-c4cccnc4)cc23)c1
target = HTR2C (Homo sapiens, UniProt P28335); value = -4.02%
target = HTR2A (Homo sapiens, UniProt P28223); value = -7.89%
target = SLC6A2 (Homo sapiens, UniProt P23975); value = 40.2%
target = OPRD1 (Homo sapiens, UniProt P41143); value = -0.04%
target = SLC6A3 (Homo sapiens, UniProt Q01959); value = 25.5%
target = OPRK1 (Homo sapiens, UniProt P41145); value = 13.1%
target = CHRM3 (Homo sapiens, UniProt P20309); value = -11.6%
target = DRD5 (Homo sapiens, UniProt P21918); value = 34.3%
target = OPRM1 (Homo sapiens, UniProt P35372); value = 24.8%
target = SLC6A4 (Homo sapiens, UniProt P31645); value = -17.3%
target = CHRM1 (Homo sapiens, UniProt P11229); value = 21.7%

Study 2 — observed: enzyme activity; mode: inhibitor; tested at: 0.5 µM; relative to: control; measurement: remaining activity
SMILES: N/C(=N\[N+](=O)[O-])N/N=C\c1ccc(-c2cccc([N+](=O)[O-])c2)o1
target = CSNK1E (Homo sapiens, UniProt P49674); value = 91%
target = EPHB3 (Homo sapiens, UniProt P54753); value = 91.7%
target = CSNK1D (Homo sapiens, UniProt P48730); value = 99.8%
target = CLK2 (Homo sapiens, UniProt P49760); value = 88.3%
target = CAMKK1 (Homo sapiens, UniProt Q8N5S9); value = 106%
target = TEC (Homo sapiens, UniProt P42680); value = 147%
target = PAK6 (Homo sapiens, UniProt Q9NQU5); value = 99%
target = PRKCZ (Homo sapiens, UniProt Q05513); value = 90.1%
target = YES1 (Homo sapiens, UniProt P07947); value = 95.6%
target = BRSK2 (Homo sapiens, UniProt Q8IWQ3); value = 106%
target = DYRK1A (Homo sapiens, UniProt Q13627); value = 95.8%
target = FES (Homo sapiens, UniProt P07332); value = 101%
target = RPS6KB2 (Homo sapiens, UniProt Q9UBS0); value = 102%
target = MELK (Homo sapiens, UniProt Q14680); value = 102%
target = IGF1R (Homo sapiens, UniProt P08069); value = 96.4%
target = MARK1 (Homo sapiens, UniProt Q9P0L2); value = 90.7%
target = CAMK1 (Homo sapiens, UniProt Q14012); value = 106%
target = ERBB2 (Homo sapiens, UniProt P04626); value = 100%

Study 3 — medium: plasma; measurement: Tmax
SMILES: O=C1CCC(N2Cc3c(ccc4c3OCC43CCN(Cc4ccccc4)CC3)C2=O)C(=O)N1 (centres unmarked)
test system = ICR mice, male; conditions = oral, 3.0 mg/kg; value = 40.2 min
test system = male Sprague-Dawley rat; conditions = oral, 3 mg/kg; value = 200 min
test system = ICR mouse, male; conditions = intravenous, 1.0 mg/kg; value = 4.8 min
test system = male CD-1 mouse; conditions = oral, 3 mg/kg; value = 40.2 min
test system = male Sprague-Dawley rat; conditions = intravenous, 1 mg/kg; value = 8.4 min
test system = Sprague Dawley rat, male; conditions = intravenous, 1.0 mg/kg; value = 15 min
test system = male CD-1 mouse; conditions = intravenous, 1 mg/kg; value = 4.8 min

Study 4 — cell line: HEK-293T/ACE2; tested at: 10 µM; time: 16 h; relative to: vehicle; measurement: viability
SMILES = Cc1cccc(Nc2ccncc2S(=O)(=O)NC(=O)NC(C)C)c1; value = 101%
SMILES = O=C1O[C@H](CO)[C@@H](O)[C@H](O)[C@H]1O; value = 98%
SMILES = C#Cc1cccc(Nc2ncnc3cc(OCCOC)c(OCCOC)cc23)c1; value = 98.2%
SMILES = CNC(=O)c1ccccc1Sc1ccc2c(/C=C/c3ccccn3)n[nH]c2c1; value = 71.2%
SMILES = CC1(C)O[C@@H]2C[C@H]3[C@@H]4CCC5=CC(=O)C=C[C@]5(C)[C@@]4(F)[C@@H](O)C[C@]3(C)[C@]2(C(=O)CO)O1; value = 101%
SMILES = CCCCC1C(=O)N(c2ccccc2)N(c2ccccc2)C1=O; value = 102%
SMILES = CN(C)CCC(c1ccc(Cl)cc1)c1ccccn1 (centres unmarked); value = 103%
SMILES = CCC(Cc1c(I)cc(I)c(N)c1I)C(=O)O (centres unmarked); value = 96.8%
SMILES = CC(NCCc1ccc(O)cc1)C(O)c1ccc(O)cc1 (centres unmarked); value = 100%
SMILES = Cc1ccnc(NS(=O)(=O)c2ccc(N)cc2)n1; value = 100%
SMILES = CO[C@H]1C[C@@H]2CC[C@@H](C)[C@@](O)(O2)C(=O)C(=O)N2CCCC[C@H]2C(=O)O[C@H]([C@H](C)C[C@@H]2CC[C@@H](O)[C@H](OC)C2)CC(=O)[C@H](C)/C=C(\C)[C@@H](O)[C@@H](OC)C(=O)[C@H](C)C[C@H](C)/C=C/C=C/C=C/1C; value = 100%

Repeated from above (study 4):
SMILES = CCCCC1C(=O)N(c2ccccc2)N(c2ccccc2)C1=O; value = 102%
SMILES = CC1(C)O[C@@H]2C[C@H]3[C@@H]4CCC5=CC(=O)C=C[C@]5(C)[C@@]4(F)[C@@H](O)C[C@]3(C)[C@]2(C(=O)CO)O1; value = 101%
SMILES = CCC(Cc1c(I)cc(I)c(N)c1I)C(=O)O (centres unmarked); value = 96.8%
SMILES = CO[C@H]1C[C@@H]2CC[C@@H](C)[C@@](O)(O2)C(=O)C(=O)N2CCCC[C@H]2C(=O)O[C@H]([C@H](C)C[C@@H]2CC[C@@H](O)[C@H](OC)C2)CC(=O)[C@H](C)/C=C(\C)[C@@H](O)[C@@H](OC)C(=O)[C@H](C)C[C@H](C)/C=C/C=C/C=C/1C; value = 100%
SMILES = Cc1cccc(Nc2ccncc2S(=O)(=O)NC(=O)NC(C)C)c1; value = 101%
